Measurements from different studies.
Compare with care: the assays were run in different laboratories. ± gives the spread as reported. Values after ≈ are worked out from the molar mass of the structure shown.

SMILES | tested on | test | test system | conditions | how to read | endpoint | result
CC(C)CC(O)(CC(C)C)c1cn(C(=O)N2CCCC2)nn1 | mouse T-cells | N-terminal labeled proteins, N-terminal enrichment proteomics, measured: SKP1A |  | 1 nM, 6 h | baseline: DMSO | SILAC ratio | 2.65 ± 0.24
CC(=O)[O-].O.O.O.O.[Co+2].[O-]c1ccc(Br)cc1C=NCCN1CCOCC1 | Salmonella enterica |  | serovar Typhi | 20 µL of 100 µM per disc |  | inhibition zone diameter | 13 mm
CCN(CC)Cc1cc(Nc2c(C)cnc3cc(Cl)ccc23)ccc1O | Dengue virus type 2 | viral replication, Rluc reporter replicon | BHK-21 DENV2 replicon cells | 24 h |  | EC50 | 21.1 ± 1.22 µM
COc1ccc(-n2cc(C(=O)N3C[C@]4(OC(=O)c5ccccc5NC(C)=O)CC[C@H](OC)[C@@]56[C@@H]4C[C@@H]([C@@H]35)[C@@]3(O)C[C@H](OC)[C@H]4C[C@@H]6[C@]3(O)[C@H]4OC)nn2)cc1 | RAW264.7 | western blot |  | 30, 60 or 120 µM, 24 h, with: LPS 1 µg/mL |  | COX-2 protein level | decreased
CC/C=C\C/C=C\C/C=C\C/C=C\C/C=C\C/C=C\CCC(=O)Nc1ccn(C2OC(CO)C(O)C2(F)F)c(=O)n1 (centres unmarked) | T47D |  |  |  |  | CC50 | 71.9 µM
CCN(CC)Cc1cc(Nc2c(C3CCCC3)c(C)nc3cc(Cl)ccc23)ccc1O | West Nile virus | replicon replication, luciferase reporter | Vero WNV Rluc replicon | 50 µM, 24 h |  | inhibition | inhibited
CC[C@H](C)[C@H](NC(=O)[C@@H](NC(=O)[C@H](CC(=O)O)NC(C)=O)[C@@H](C)O)C(=O)N[C@@H](CCCNC(=N)N)C(=O)N[C@@H](CC(C)C)C(=O)N[C@@H](CC(C)C)C(=O)N[C@@H](Cc1ccccc1)C(=O)N[C@@H](CCC(N)=O)C(=O)N[C@@H](CC(C)C)C(=O)N[C@@H](CCSC)C(=O)N[C@@H](CCCNC(=N)N)C(=O)N1CCC[C@H]1C(=O)N1CCC[C@H]1C(=O)N[C@@H](CC(N)=O)C(=O)N[C@@H](CCSC)C(=O)N[C@H](C(=O)N1CCC[C@H]1C(=O)N[C@@H](C)C(=O)N[C@H](C(=O)N[C@@H](CC(N)=O)C(=O)N[C@@H](C)C(N)=O)C(C)C)[C@@H](C)O |  | measured: HA-52 tetramer | antigen-experienced tetramer+ CD4 T cells, healthy adults, HLA-DRB1*0101 | dose not given |  | α4β7+ CCR9+ cells | 25%
C=CCc1cc2c(c(OC)c1OC)OCO2 | T47D | cell growth or viability |  | 72 h |  | GI50 | > 250 µM
COc1cc(CNC(=O)C[C@H](C)CCC=C(C)C)ccc1OCc1cn(-c2cccc(C(F)(F)F)c2)nn1 | HL-60(TB) | SRB |  | 10 µM, 48 h |  | growth | 96.3%
C[n+]1ccc(Nc2ccc(O)cc2)c2ccc(Cl)cc21 | West Nile virus | viral replication, Rluc reporter replicon | Vero WNV replicon cells | 24 h |  | EC50 | 33.4 ± 3.09 µM
CC(C)[C@]12O[C@H]1[C@@H]1O[C@]13[C@]1(O[C@H]1C[C@H]1c4c(C(=O)c5ccccc5)oc(OC(=O)c5ccccc5)c4CC[C@@]13C)[C@@H]2O | MV4-11 | cell viability, Alamar Blue |  | 72 h |  | IC50 | 0.0162 µM
CC[N+](C)(CC)Cc1cc(Nc2ccnc3cc(Cl)ccc23)ccc1O | Dengue virus type 2 | viral replication, Rluc reporter replicon | BHK-21 DENV2 replicon cells | 24 h |  | EC50 | 29.7 ± 2.26 µM
CN[C@@H]1[C@H](O)[C@H](NC)[C@H]2O[C@]3(O)[C@H](O[C@@H]2[C@H]1O)O[C@H](C)C[C@@]3(O)CNCCc1ccc(F)cc1 | Mycobacteroides abscessus | microbial growth | ATCC19977 | 5 days |  | MIC | 4 µg/mL (≈ 8.24 µM)
CC[C@H](C)[C@H](NC(=O)[C@H](CC(C)C)NC(=O)CNC(=O)[C@H](CCCCN)NC(=O)[C@@H](NC(=O)[C@@H](NC(=O)[C@H](CC(N)=O)NC(=O)[C@H](Cc1c[nH]c2ccccc12)NC(=O)[C@@H](NC(=O)[C@H](CCC(=O)O)NC(=O)CNC(=O)[C@H](Cc1c[nH]c2ccccc12)NC(=O)[C@@H](N)CC(C)C)[C@@H](C)CC)[C@@H](C)O)C(C)C)C(N)=O | Herpes simplex virus 1 | viral entry, plaque reduction | Vero, F | 37 °C |  | IC50 | 31.7 µg/mL
CC[C@H](C)[C@H](NC(=O)[C@H](Cc1c[nH]c2ccccc12)NC(=O)[C@H](CCCNC(=N)N)NC(=O)[C@H](CCCCN)NC(=O)[C@H](CC(C)C)NC(=O)[C@H](CC(=O)O)NC(=O)[C@H](Cc1ccccc1)NC(=O)[C@H](C)NC(=O)[C@H](Cc1ccc(O)cc1)NC(=O)[C@H](CC(N)=O)NC(=O)[C@H](Cc1ccc(O)cc1)NC(=O)[C@H](CCCNC(=N)N)NC(=O)[C@H](Cc1ccc(O)cc1)NC(=O)[C@H](Cc1ccc(O)cc1)NC(=O)[C@@H](NC(=O)[C@H](CC(C)C)NC(=O)[C@H](C)NC(=O)[C@H](CC(N)=O)NC(=O)[C@H](Cc1ccc(O)cc1)NC(C)=O)[C@@H](C)CC)C(=O)N[C@@H](Cc1ccc(O)cc1)C(=O)N[C@@H](CC(C)C)C(N)=O |  | measured: HA-51 tetramer | antigen-experienced tetramer+ CD4 T cells, healthy adults, HLA-DRB1*0101 | dose not given |  | α4β7− CCR9− cells | 29.2%
Nc1ccc(/C=C/C(=O)N2CCc3c(oc4c(-c5ccc(F)cc5)cc(-c5ccc(C(=O)N6CCC(F)(F)CC6)cn5)cc34)C2)cn1 |  | immunohistochemistry | mice, MIA PaCa-2 xenograft, tumour | 100 mg/kg |  | β-catenin level | decreased
O=C1C[C@@H](c2ccc(O)cc2)Oc2cc(O)ccc21 |  |  | Sprague-Dawley rat, Freund's adjuvant arthritis | oral, 10 mg/kg, 6 h, with: aconitine 1 mg/kg |  | hind paw volume | 1.87 ± 0.06 mL
COc1cc(CNC(=O)C[C@H](C)CCC=C(C)C)ccc1OCc1cn(-c2ccc(Cl)c(Cl)c2)nn1 | HL-60(TB) | SRB |  | 10 µM, 48 h |  | growth | 84%
CN[C@@H]1[C@H](O)[C@H](NC)[C@H]2O[C@]3(O)[C@H](O[C@@H]2[C@H]1O)O[C@H](C)C[C@@]3(O)CNCc1ccc(F)cc1 | Mycobacteroides abscessus | microbial growth | ATCC19977 | 5 days |  | MIC | 128 µg/mL (≈ 271 µM)
COc1cc(N2CCN(C)CC2)ccc1Nc1ncc2c(n1)N(C1CCC1)C(=O)N(c1c(C)cccc1C)C2 |  |  | healthy women skin type II, skin | dose not given |  | cyclobutane pyrimidine dimer reduction | 65.2%
CCCC/C=C/C(=O)N[C@@H](Cc1cc(F)cc(F)c1)C(=O)N[C@@H](COC(=O)[C@@H]1CCCN1C(C)=O)C(=O)OC | Mycobacterium tuberculosis ClpX | ATPase activity |  | 200 µM, DMSO 80%, with: ClpP1P2 | baseline: basal activity | remaining activity | ~55%
CC(C)C[C@H](NC(=O)CNC(=O)[C@H](CO)NC(=O)[C@@H](NC(=O)[C@H](CC(C)C)NC(=O)[C@H](CCCCN)NC(=O)[C@H](CS)NC(=O)[C@H](CCCNC(=N)N)NC(=O)[C@H](CS)NC(=O)[C@@H](NC(=O)[C@@H](NC(=O)[C@H](CO)NC(=O)[C@H](CS)NC(=O)[C@H](CC(C)C)NC(=O)[C@H](CCCCN)NC(=O)[C@H](CCC(N)=O)NC(=O)[C@H](C)NC(=O)CNC(=O)[C@H](CCCNC(=N)N)NC(=O)[C@H](CO)NC(=O)[C@H](CCCNC(=N)N)NC(=O)[C@H](CS)NC(=O)[C@H](CC(C)C)NC(=O)[C@H](CC(N)=O)NC(=O)[C@H](Cc1ccc(O)cc1)NC(=O)[C@H](CS)NC(=O)[C@H](CC(N)=O)NC(=O)[C@H](CCCNC(=N)N)NC(=O)CNC(=O)[C@H](CC(C)C)NC(=O)[C@@H](NC(=O)[C@@H](NC(=O)[C@H](CCCNC(=N)N)NC(=O)[C@H](CS)NC(=O)[C@H](CS)NC(=O)[C@H](CO)NC(=O)[C@@H](N)CCCCN)[C@@H](C)O)[C@@H](C)O)[C@@H](C)O)C(C)C)[C@@H](C)O)C(=O)N[C@@H](CO)C(=O)N[C@@H](CS)C(=O)N1CCC[C@H]1C(=O)N[C@@H](CCCCN)C(=O)NCC(=O)N[C@@H](Cc1ccccc1)C(=O)N1CCC[C@H]1C(=O)N[C@@H](CCCCN)C(=O)O |  | measured: TaPR1 | Triticum aestivum cv. Fielder | dose not given, combined sgB and sgD | baseline: control | mRNA level | increased
COc1cc(CNC(=O)C[C@H](C)CCC=C(C)C)ccc1OCc1cn(-c2ccc(F)cc2)nn1 | HL-60(TB) | SRB |  | 10 µM, 48 h |  | growth | 89.3%

Excerpt of the above:
SMILES | tested on | test | test system | conditions | how to read | endpoint | result
CC[C@H](C)[C@H](NC(=O)[C@@H](NC(=O)[C@H](CC(=O)O)NC(C)=O)[C@@H](C)O)C(=O)N[C@@H](CCCNC(=N)N)C(=O)N[C@@H](CC(C)C)C(=O)N[C@@H](CC(C)C)C(=O)N[C@@H](Cc1ccccc1)C(=O)N[C@@H](CCC(N)=O)C(=O)N[C@@H](CC(C)C)C(=O)N[C@@H](CCSC)C(=O)N[C@@H](CCCNC(=N)N)C(=O)N1CCC[C@H]1C(=O)N1CCC[C@H]1C(=O)N[C@@H](CC(N)=O)C(=O)N[C@@H](CCSC)C(=O)N[C@H](C(=O)N1CCC[C@H]1C(=O)N[C@@H](C)C(=O)N[C@H](C(=O)N[C@@H](CC(N)=O)C(=O)N[C@@H](C)C(N)=O)C(C)C)[C@@H](C)O |  | measured: HA-52 tetramer | antigen-experienced tetramer+ CD4 T cells, healthy adults, HLA-DRB1*0101 | dose not given |  | α4β7+ CCR9+ cells | 25%
C=CCc1cc2c(c(OC)c1OC)OCO2 | T47D | cell growth or viability |  | 72 h |  | GI50 | > 250 µM
